Measurements gathered from unrelated publications.
Each line is one published result; not all experiments were run side by side.
Target: Albumin (ALB, Homo sapiens, UniProt P02768)

| SMILES | assay | system | setting | endpoint | value |
| --- | --- | --- | --- | --- | --- |
| O=C1CCC(N2Cc3c(NCc4ccc(CN5CCOCC5)cc4)cccc3C2=O)C(=O)N1 (stereo not drawn) | HPLC, immobilised HSA column | – | concentration not given | HSA binding | 86% |
| Cc1cc(C)c(-c2cc(C)c(OP(=O)([O-])OCCC[C@H](C(=O)[O-])N3CCN(CC(=O)[O-])CCN(C(C(=O)[O-])C(=O)[O-])CCN(CC(=O)[O-])CC3)cc2C)c(C)c1.[Gd+3] | variable temperature NMRD | HSA-bound complex | – | ZFS modulation correlation time | 18 ps |
| O=C(/C=C/c1ccc(O)c(O)c1)NCCCCCCCC[P+](c1ccccc1)(c1ccccc1)c1ccccc1 | – | human serum albumin solution | – | unbound fraction | 5.24% |
| Cc1cc(C)c(-c2cc(C)c(OP(=O)([O-])OCCC[C@H](C(=O)[O-])N3CCN(CC(=O)[O-])CCN(CC(=O)NCC(=O)[O-])CCN(CC(=O)[O-])CC3)cc2C)c(C)c1.[Gd+3] | albumin binding, variable temperature NMRD fit | albumin-bound complex | 0.1 mM, pH 7.4, 37 °C, fit 5-35 °C data, together with: HSA 0.66 mM | water residency time | 441 ns |
| CN1C(=O)[C@@H](Cc2ccc(O)cc2)NC(=O)CNC(=O)[C@H](Cc2ccc3ccccc3c2)NC(=O)[C@H](CCCNC(=N)N)NC(=O)[C@H]1CCCNC(=O)c1ccc(CNC(=O)CN2CCN(CC(=O)O)CCN(CC(=O)O)CCN(CC(=O)O)CC2)cc1 [gallium-68 labelled] | HPLC on HSA column | – | – | plasma protein binding | 86% |
| CCCNC(=O)C(c1ccc(CNc2cccc3c2CN(C2CCC(=O)NC2=O)C3=O)cc1)N1CCOCC1 (stereo not drawn) | HPLC, immobilised HSA column | – | concentration not given | HSA binding | 81% |
| CC[C@@H](C)[C@@H]1NC(=O)[C@@H](Cc2ccccc2)NC(=O)[C@@H]2CCCN2C(=O)[C@H]([C@H](C)CC)NC(=O)[C@@H](Cc2ccccc2)NC(=O)[C@@H]2CCCN2C1=O | – | – | human serum albumin | plasma protein binding | 84.2% |
| O=C1CCC(N2Cc3c(NCc4ccccc4)cccc3C2=O)C(=O)N1 (stereo not drawn) | HPLC, immobilised HSA column | – | concentration not given | HSA binding | 89% |
| COc1cccc2c1C(=O)c1c(O)c3c(c(O)c1C2=O)CC(O)(C(CO)=NNC(=O)CCCCC(=O)NNC(=O)CCCc1ccc(I)cc1)CC3OC1CC(N)C(O)C(C)O1 (stereo not drawn) | gel filtration chromatography | 5% albumin in PBS | 60 min, pH 7.4, 37 °C, 10% DMF | protein-bound fraction | 97% |

Excerpt of the above:
| SMILES | assay | system | setting | endpoint | value |
| --- | --- | --- | --- | --- | --- |
| O=C1CCC(N2Cc3c(NCc4ccc(CN5CCOCC5)cc4)cccc3C2=O)C(=O)N1 (stereo not drawn) | HPLC, immobilised HSA column | – | concentration not given | HSA binding | 86% |
